Assay results of several laboratories.
Protocols differ between the studies behind these lines. Several values in a cell are separate wells, animals, samples, runs or records. Numbers after ± are the reported error. ≈ marks a conversion by molar mass, not a printed value.
Sequence of UniProt P00520 (whole entry, looked up): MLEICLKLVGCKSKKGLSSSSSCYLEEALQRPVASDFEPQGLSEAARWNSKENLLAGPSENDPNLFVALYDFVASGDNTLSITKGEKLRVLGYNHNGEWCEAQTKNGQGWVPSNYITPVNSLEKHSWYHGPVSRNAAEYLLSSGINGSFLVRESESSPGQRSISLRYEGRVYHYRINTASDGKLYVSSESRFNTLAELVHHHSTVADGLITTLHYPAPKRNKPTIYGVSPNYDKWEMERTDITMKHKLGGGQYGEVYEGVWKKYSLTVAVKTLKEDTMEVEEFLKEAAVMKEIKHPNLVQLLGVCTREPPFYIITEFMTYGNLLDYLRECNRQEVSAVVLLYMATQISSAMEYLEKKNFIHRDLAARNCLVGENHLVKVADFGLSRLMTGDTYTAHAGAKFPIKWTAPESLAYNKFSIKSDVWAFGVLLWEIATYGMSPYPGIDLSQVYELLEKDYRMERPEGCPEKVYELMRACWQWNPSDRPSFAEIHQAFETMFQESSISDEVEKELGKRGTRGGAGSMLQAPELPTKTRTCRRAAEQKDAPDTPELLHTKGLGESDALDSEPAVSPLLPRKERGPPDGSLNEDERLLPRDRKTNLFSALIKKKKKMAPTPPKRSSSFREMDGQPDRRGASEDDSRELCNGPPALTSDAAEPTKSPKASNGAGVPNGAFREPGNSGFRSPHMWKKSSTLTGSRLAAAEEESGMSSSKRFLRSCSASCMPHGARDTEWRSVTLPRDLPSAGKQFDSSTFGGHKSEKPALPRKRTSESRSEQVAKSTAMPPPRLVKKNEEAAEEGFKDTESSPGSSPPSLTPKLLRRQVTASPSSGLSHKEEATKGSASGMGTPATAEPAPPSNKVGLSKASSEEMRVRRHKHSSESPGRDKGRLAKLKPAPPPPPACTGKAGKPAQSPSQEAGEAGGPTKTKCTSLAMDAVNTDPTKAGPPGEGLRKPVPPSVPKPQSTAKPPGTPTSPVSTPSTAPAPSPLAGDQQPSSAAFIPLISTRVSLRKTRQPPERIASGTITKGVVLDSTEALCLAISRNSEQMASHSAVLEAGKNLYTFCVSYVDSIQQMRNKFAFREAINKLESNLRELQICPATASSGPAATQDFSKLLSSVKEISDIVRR
Sequence of UniProt Q5XJY4 (whole entry, looked up): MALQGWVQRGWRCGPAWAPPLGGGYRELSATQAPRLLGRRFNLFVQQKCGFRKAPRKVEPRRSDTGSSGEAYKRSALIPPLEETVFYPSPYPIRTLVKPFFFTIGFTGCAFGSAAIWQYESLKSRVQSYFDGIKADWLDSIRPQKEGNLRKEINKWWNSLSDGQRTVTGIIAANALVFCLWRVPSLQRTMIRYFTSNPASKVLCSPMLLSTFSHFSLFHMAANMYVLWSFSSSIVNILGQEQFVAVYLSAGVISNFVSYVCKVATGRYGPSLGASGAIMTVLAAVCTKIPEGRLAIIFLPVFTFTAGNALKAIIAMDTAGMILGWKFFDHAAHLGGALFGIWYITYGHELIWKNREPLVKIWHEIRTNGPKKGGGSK
Sequence of UniProt P42680 (whole entry, looked up): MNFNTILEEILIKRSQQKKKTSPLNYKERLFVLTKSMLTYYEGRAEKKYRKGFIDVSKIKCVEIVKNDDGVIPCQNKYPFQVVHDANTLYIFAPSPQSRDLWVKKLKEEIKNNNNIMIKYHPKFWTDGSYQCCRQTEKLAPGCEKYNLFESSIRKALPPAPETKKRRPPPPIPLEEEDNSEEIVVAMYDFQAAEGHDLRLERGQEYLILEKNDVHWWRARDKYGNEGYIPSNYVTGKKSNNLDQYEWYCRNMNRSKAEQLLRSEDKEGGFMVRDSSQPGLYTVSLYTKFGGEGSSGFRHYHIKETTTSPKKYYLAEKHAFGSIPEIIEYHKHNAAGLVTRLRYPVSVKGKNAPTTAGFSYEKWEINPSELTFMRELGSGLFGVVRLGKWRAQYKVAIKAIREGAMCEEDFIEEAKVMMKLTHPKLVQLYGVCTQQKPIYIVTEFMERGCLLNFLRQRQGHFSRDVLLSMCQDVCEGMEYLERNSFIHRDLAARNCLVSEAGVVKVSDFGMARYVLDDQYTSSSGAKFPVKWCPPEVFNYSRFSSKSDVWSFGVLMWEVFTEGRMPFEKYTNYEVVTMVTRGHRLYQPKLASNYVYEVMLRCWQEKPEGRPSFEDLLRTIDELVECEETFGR

CC[C@H](C)[C@H](NC(=O)[C@H](CO)NC(=O)[C@H](Cc1ccc(O)cc1)NC(=O)[C@H](Cc1ccc(O)cc1)NC(=O)[C@H](CC(N)=O)NC(=O)CNC(=O)[C@H](CO)NC(=O)[C@H](Cc1ccc(O)cc1)NC(=O)[C@H](CO)NC(=O)[C@H](CO)NC(=O)[C@H](CC(N)=O)NC(=O)COCCOCCNC(=O)CN1CCN(CC(=O)O)CCN(CC(=O)O)CCN(CC(=O)O)CC1)C(=O)N[C@@H](CC(C)C)C(N)=O [copper-64 labelled] — maximum pancreas uptake (dynamic PET; tamoxifen-induced PDAC mouse model, pancreas; 1.9 min, CLDN4-expressing tumours): 24.2 %IA/cc
COc1ccccc1-c1n[nH]c2nc(N[C@H]3CC[C@H](NS(=O)(=O)CC(C)C)CC3)ncc12 — relative abundance (bead binding, competition bead pull-down, measured: LINJ.33.2520; Leishmania donovani extract; 10 µM; reference: vehicle): 0.94
CCCCCC1=C(NCC)C(=O)C(C/C=C(\C)CCC=C(C)C)=C(O)C1=O — normalised enrichment score (RNA-seq, measured: Stat1 regulon; mouse, striatum; dose not given; direction not given): 1.91
CN1C(=O)C(C2C3=C(CC(C)(C)CC3=O)Oc3ccc(Cl)cc32)C(=O)N(C)C1=O (stereo not drawn) — mean lipid content (3T3-L1 mature adipocytes; lipolysis, Oil Red O staining; IC20): 0.641 OD492
CC[C@H](C)[C@H](NC(=O)[C@H](CCCCN)NC(=O)CNC(=O)[C@H](CC(C)C)NC(=O)[C@H](Cc1ccccc1)NC(=O)[C@H](CCCCN)NC(=O)[C@H](CO)NC(=O)[C@H](Cc1ccccc1)NC(=O)[C@H](Cc1c[nH]c2ccccc12)NC(=O)[C@H](CCC(N)=O)NC(=O)[C@@H](NC(=O)[C@H](Cc1ccccc1)NC(=O)CCCCCNC(=O)CN1CCN(CC(=O)O)CCN(CC(=O)O)CCN(CC(=O)O)CC1)C(C)C)C(=O)N[C@@H](CCC(=O)O)C(=O)N1CCC[C@H]1C(=O)N[C@@H](CC(=O)O)C(=O)N[C@H](C(=O)N[C@@H](CO)C(=O)N[C@@H](CCC(N)=O)C(=O)N[C@H](C(=O)N[C@@H](CCC(N)=O)C(=O)N[C@@H](CC(=O)O)C(=O)N1CCC[C@H]1C(=O)N[C@@H](CC(N)=O)C(=O)N[C@@H](CC(=O)O)C(=O)N[C@@H](CCC(N)=O)C(=O)N[C@@H](Cc1ccc(O)cc1)C(=O)N[C@@H](CCC(=O)O)C(=O)N1CCC[C@H]1C(=O)N[C@@H](Cc1ccccc1)C(=O)O)C(C)C)C(C)C [copper-64 labelled] — tissue uptake (GZMB-/- mice, CT26 tumour-bearing, heart; 2 h, vehicle-treated): 0.97 ± 0.1 %ID/g
CC[C@@H]1CN2CCc3c([nH]c4cccc(OC)c34)[C@@H]2C[C@@H]1/C(=C\OC)C(=O)OC — IC50 (rabbit anti-mitragynine polyclonal IgG; antigen binding, competitor, competitive indirect ELISA; 10% methanol; 90 min antibody-standard, 30 min antibody-antigen incubation): 0.81 µg/mL and 0.72 µg/mL
Cc1ccc(N2CC3CC(C2)N3C)cc1C(=O)NC1(c2ccc3c4c(cccc24)C(=O)N3C)CC1 — inhibition (Mink-PLpro; enzyme activity, inhibitor; 100 µM): 99.1% and 102%
Cc1ccc(C2=CC(C)(C)Oc3ccc(-c4ccc(-c5ccc(C(=O)O)cc5)[nH]4)cc32)cc1 — tubules with multinucleated giant cells (CD-1 mouse, male, testis; 20 mg/kg/day, 2 weeks, one day after dosing end): 1.4% and 12.7%
CCN(CC)C(=O)[C@@H]1C=C2c3cccc4c3c(cn4C(=O)c3cccs3)C[C@H]2N(C)C1 — ED50 (head-twitch response, magnetometer detection; mouse C57BL/6J male; intraperitoneal, 30 min session): 0.78 mg/kg
Cc1cc(C(=O)Nc2nc3cccc(C)c3n2[C@H]2CCCCN(C(=O)/C=C/CN(C)C)C2)ccn1 — survival (Trypanosoma brucei brucei; 2T1 wild type; 0.09259 µM): -0.1% and -0.09% and 0.14% and 0.12% and 0.65% and 0.34%
O=C1NC2(CC2)COc2ncc(F)cc2[C@H]2COCCN2c2ccn3ncc1c3n2 — pancreatic amylase activity (Sprague-Dawley rat, male, serum; oral, 5 mg/kg/day, 4 weeks daily, end of recovery period): 2020 ± 130 U/L
CC(C)CC(O)(CC(C)C)c1cn(C(=O)N2CCCC2)nn1 — activity ratio (Presenilin-associated rhomboid-like protein, mitochondrial (Parl, Mus musculus, UniProt Q5XJY4); enzyme activity, inhibitor, competitive ABPP-SILAC, measured: Parl; mouse T-cells; concentration not given, 4 h, treated in situ; reference: DMSO): 1.29
CC[C@H](C)[C@H](NC(=O)[C@H](CCCNC(=N)N)NC(=O)[C@H](CO)NC(=O)[C@H](Cc1ccc(O)cc1)NC(=O)[C@@H](NC(=O)[C@@H](NC(=O)[C@H](C)NC(=O)CNC(=O)[C@H](CCCCN)NC(=O)[C@H](CCCCN)NC(=O)CCNC(=O)CCCCCNC(=O)[C@H](CCCNC(=N)N)NC(=O)CCCCCNC(=O)[C@H](CCCNC(=N)N)NC(=O)[C@H](CCCNC(=N)N)NC(=O)CCCCCNC(=O)[C@H](CCCNC(=N)N)NC(=O)[C@H](CCCNC(=N)N)NC(=O)CCCCCNC(=O)[C@H](CCCNC(=N)N)NC(=O)[C@H](CCCNC(=N)N)NC(=O)CCCCCNC(=O)[C@@H](N)CCCNC(=N)N)C(C)C)[C@@H](C)O)C(=O)N[C@@H](CO)C(=O)NCC(=O)N[C@@H](CCC(N)=O)C(=O)N[C@@H](Cc1ccc(O)cc1)C(=O)N[C@@H](CCCCN)C(=O)O — MIC (broth microdilution; ATCC 1720 resistant strain, Mueller-Hinton broth): 12 µM (≈ 42.9 µg/mL)
O=C(O)c1ccc(-c2nc(-c3ccccc3Cl)c3sccn23)cc1 — CD61-positive cells (HEL; flow cytometry; 0.01 mM): 76%
CS(C)(=O)=Nc1ccc(-c2ccc(-c3nc4cc(O[C@@H]5CO[C@H]6[C@@H]5OC[C@H]6O)[nH]c4cc3F)cc2)cc1 — inhibition (Mitogen-activated protein kinase 1 (MAPK1, Homo sapiens, UniProt P28482); enzyme activity, inhibitor; 10 µM): 19%
Cc1nc2cccc(OCC(C)(C)C(=O)NC(C)C)c2c(N)c1C(=O)[O-].[Na+] — revertant colonies (Escherichia coli; reverse mutation, preincubation; WP2 uvrA; 0.051 mg/plate, without S9): 28 ± 5 colonies/plate
CC(C)CC(C(=O)N1CC2(CC1C#N)C(=O)Nc1ccccc12)N(C)C(=O)c1cc2c(F)cc(F)c(F)c2[nH]1 (stereo not drawn) — inhibition (human coronavirus 229E; viral replication; MRC-5; 0.3085 µM): 107%
CN(C)[C@H]1C[C@@]23CC[C@@]4(O2)C(=CC[C@]2(C)[C@@H](c5ccc6ccncc6c5)CC[C@H]24)C=C3[C@@H](O)[C@@H]1O — inhibition (Tyrosine-protein kinase Tec (TEC, Homo sapiens, UniProt P42680); ATP probe labelling, inhibitor, KiNativ profiling; 0.1 µM): 8.8%
CC(C)(C)C(=O)OCOP(=O)(OCOC(=O)C(C)(C)C)C1CCCN(O)C1=O (stereo not drawn) — CC50 (786-0): > 100000 nM
Cc1cc(Oc2nc(N3CC[C@@H](c4ccncc4)C3)ncc2F)[nH]n1 — normalised growth (Mycobacterium tuberculosis; THP-1, H37Rv non-replicating; 9.488 µM, day 4): 13.2% and 22.6%
COc1ccccc1-c1n[nH]c2nc(NC3CCN(C(=O)Cc4ccc(F)cc4F)CC3)ncc12 — relative abundance (bead binding, competition bead pull-down, measured: LINJ.23.0050; Leishmania donovani extract; 10 µM; reference: vehicle): 1
CC[C@H](C)[C@@H]([C@@H](CC(=O)N1CCC[C@H]1[C@H](OC)[C@@H](C)C(=O)N[C@H](C)[C@@H](O)c1ccccc1)OC)N(C)C(=O)[C@@H](NC(=O)[C@H](C(C)C)N(C)C(=O)OCc1ccc(NC(=O)[C@H](CCCNC(N)=O)NC(=O)[C@@H](NC(=O)CCCCCN2C(=O)CC(SC[C@H](NC(=O)[C@H](CC(=O)O)NC(=O)[C@H](Cc3ccc(O)cc3)NC(=O)[C@H](Cc3c[nH]c4ccccc34)NC(=O)[C@@H](N)CCCNC(=N)N)C(=O)O)C2=O)C(C)C)cc1)C(C)C (stereo partly drawn) — concentration (C57BL/6 mice (healthy), serum; intraperitoneal, 2.5 mg/kg, 0.167 h): 42 ± 16.7 nM
O=C(C[Se]C(=O)c1cccs1)Nc1cccc(C(F)(F)F)c1 — mean growth percent (NCI60 renal subpanel; cell growth; 10 µM, 48 h, one-dose): -81.9%
CN1C(=O)C(C2C3=C(CCCC3=O)Oc3ccc(Br)cc32)C(=O)N(C)C1=O (stereo not drawn) — mean lipid content (3T3-L1 mature adipocytes; lipolysis, Oil Red O staining; IC20): 0.594 OD492
CC(C)[C@H]1NC(=O)C[C@H]2/C=C/CCSSC[C@@H](NC1=O)C(=O)N[C@H](Cc1cccc3ccccc13)C(=O)NCC(=O)O2 — inhibition (Hepatocyte growth factor receptor (MET, Homo sapiens, UniProt P08581, D1228H); enzyme activity, inhibitor; 10 µM): 1.7%
CCN(CC)C(=O)[C@@H]1C=C2c3cccc4c3c(cn4C(=O)c3ccco3)C[C@H]2N(C)C1 — head-twitch response count (magnetometer; C57BL/6J mouse, male; intraperitoneal, 1 mg/kg, 30 min session): 41.8
O=C1NC(=O)c2c1c1cc(F)c[n+]3c1c1c2c2cc(O)ccc2[n]1[Ru-4]312([N]=C=S)[S+]3CC[S+]1CC[S+]2CC3 (stereo not drawn) — remaining activity (Tyrosine-protein kinase ABL1 (Abl1, Mus musculus, UniProt P00520); enzyme activity; 100 nM, mouse enzyme, with: 10 µM ATP; reference: untreated): 96%
CC1CCC2C(C)C(CCCOC(=O)C(Cc3ccc(N(CCCl)CCCl)cc3)NC(=O)OC(C)(C)C)OC3OC4(C)CCC1C32OO4 (stereo not drawn) — IC50 (A2780; cell growth or viability, CCK-8): 1290 nM
Nc1ncc(-c2cc(-c3cnn(CC(F)(F)F)c3)ncc2F)nc1C(=O)NC1CNCC(F)C1 (stereo not drawn) — remaining binding (ABL1(F317L)-nonphosphorylated; KINOMEscan competition binding; 1 µM; reference: DMSO control): 100%
NCCCO.O=C(O)C(Cl)Cl — inhibition (Solanum nigrum; herbicidal activity; 15 mg/mL, 21 days, post-emergence greenhouse): 59%

For quick reference, copied from above:
CCCCCC1=C(NCC)C(=O)C(C/C=C(\C)CCC=C(C)C)=C(O)C1=O — normalised enrichment score (RNA-seq, measured: Stat1 regulon; mouse, striatum; dose not given; direction not given): 1.91
CC1CCC2C(C)C(CCCOC(=O)C(Cc3ccc(N(CCCl)CCCl)cc3)NC(=O)OC(C)(C)C)OC3OC4(C)CCC1C32OO4 (stereo not drawn) — IC50 (A2780; cell growth or viability, CCK-8): 1290 nM
CC[C@H](C)[C@H](NC(=O)[C@H](CCCCN)NC(=O)CNC(=O)[C@H](CC(C)C)NC(=O)[C@H](Cc1ccccc1)NC(=O)[C@H](CCCCN)NC(=O)[C@H](CO)NC(=O)[C@H](Cc1ccccc1)NC(=O)[C@H](Cc1c[nH]c2ccccc12)NC(=O)[C@H](CCC(N)=O)NC(=O)[C@@H](NC(=O)[C@H](Cc1ccccc1)NC(=O)CCCCCNC(=O)CN1CCN(CC(=O)O)CCN(CC(=O)O)CCN(CC(=O)O)CC1)C(C)C)C(=O)N[C@@H](CCC(=O)O)C(=O)N1CCC[C@H]1C(=O)N[C@@H](CC(=O)O)C(=O)N[C@H](C(=O)N[C@@H](CO)C(=O)N[C@@H](CCC(N)=O)C(=O)N[C@H](C(=O)N[C@@H](CCC(N)=O)C(=O)N[C@@H](CC(=O)O)C(=O)N1CCC[C@H]1C(=O)N[C@@H](CC(N)=O)C(=O)N[C@@H](CC(=O)O)C(=O)N[C@@H](CCC(N)=O)C(=O)N[C@@H](Cc1ccc(O)cc1)C(=O)N[C@@H](CCC(=O)O)C(=O)N1CCC[C@H]1C(=O)N[C@@H](Cc1ccccc1)C(=O)O)C(C)C)C(C)C [copper-64 labelled] — tissue uptake (GZMB-/- mice, CT26 tumour-bearing, heart; 2 h, vehicle-treated): 0.97 ± 0.1 %ID/g
COc1ccccc1-c1n[nH]c2nc(NC3CCN(C(=O)Cc4ccc(F)cc4F)CC3)ncc12 — relative abundance (bead binding, competition bead pull-down, measured: LINJ.23.0050; Leishmania donovani extract; 10 µM; reference: vehicle): 1
